# Measured values collected from several papers.
# Numbered parts are unrelated; each lists some results of a single study. Substitutions count along the parent as printed.

# Set 1
# Target: Prothrombin, mature alpha-thrombin (F2, Homo sapiens, UniProt P00734)
# Technique: aptamer microarray, sandwich
# Form: DNA with 2'F-ANA
# Sample: in vitro
# Tested at: 200 nM
# Notes: whole 15-mer aptamer, many near background
# Added: Cy3 exosite-II aptamer, 400 nM
# Reading: higher = stronger binding
# Strand: GGTTGGTGTGGTTGG
Modification,mean fluorescence intensity
2'F-ANA at 1 2 3 5 6 12 14,45.9 a.u.
2'F-ANA at 2 4 5 9 10 11 12 13 14,47.9 a.u.
2'F-ANA at 1 2 4 5 6 7 8 11 14 15,48 a.u.
2'F-ANA at 3 8 9 10 11 13 15,443 a.u.
2'F-ANA at 1 2 3 4 9 10 14 15,52.2 a.u.
2'F-ANA at 1 4 6 8 9 11 12 14 15,55.2 a.u.
2'F-ANA at 2 3 6 8 9 14 15,356 a.u.
2'F-ANA at 1 3 5 7 8 10 14 15,45.9 a.u.
2'F-ANA at 1 5 6 8 12 14,43.8 a.u.
2'F-ANA at 2 3 4 5 6 7 8 11 13 14 15,76.4 a.u.
2'F-ANA at 2 5 8 12 14,47.3 a.u.
2'F-ANA at 4 5 6 7 8 9 10 11 12 13 14,60.4 a.u.
2'F-ANA at 1 3 4 5 6 7 9 10 12 15,51.9 a.u.
2'F-ANA at 1 2 4 6 9 10 11 13 15,47.9 a.u.
2'F-ANA at 1 3 5 7 8 9 11 14,54.3 a.u.
2'F-ANA at 3 4 6 7 8 9 11 13 14,222 a.u.

# Set 2
# Target: Transcription factor SOX-2, HMG box (SOX2, Homo sapiens, UniProt P48431, residues 19-118)
# UniProt P48431, sequence (19-118, looked up): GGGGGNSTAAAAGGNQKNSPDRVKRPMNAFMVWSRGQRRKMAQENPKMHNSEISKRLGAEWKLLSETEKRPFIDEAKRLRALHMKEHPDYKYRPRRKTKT
# Technique: protein-binding microarray
# Form: double-stranded DNA, one strand shown
# Sample: in vitro
# Tested at: not given
# Notes: k-mer, scored over probes, only values ≥0.25
# Reading: higher = stronger binding
Strand,E-score
AATTTCA,0.27
TAGAGAA,0.253
CAATGCC,0.275
AGTATTA,0.251
AATAGAT,0.371
TTAACAA,0.321
AATATAA,0.314
AAAGGCC,0.32
TATTAAA,0.263
GAATAAC,0.27
CAATACA,0.398
ACTCAAT,0.278
ATAAAAG,0.265
TTATCAA,0.261
TATAAAA,0.328
CCTTTTC,0.332
ATTCATA,0.442

# Set 3
# Target: RNA binding protein fox-1 homolog 2, RRM domain, GST-SBP tag (RBFOX2, Homo sapiens, UniProt O43251-10, residues 100-194)
# Technique: RNA Bind-n-Seq
# Form: RNA
# Sample: in vitro
# Tested at: 365 nM
# Notes: natural RNA segment, single round, ends assumed
# Relative to: no-protein control
# Reading: higher = stronger binding
# Shared flanks, not repeated: GGGAGUUCUACAGUCCGACGAUC … UGGAAUUCUCGGGUGCCAA
# Residues (chain): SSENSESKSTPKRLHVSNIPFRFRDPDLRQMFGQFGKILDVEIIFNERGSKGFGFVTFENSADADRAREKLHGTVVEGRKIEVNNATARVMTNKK
Strand,RBNS enrichment (R)
GUUCACUCUGCUUCCCAACAGUGUAAAUGCAUAGCAGUGUUUACCUGCAUGAGAACUAUGCACUAAUCUAUCUGAAGAAAAAAAAAAACUAUAUCAACUUUGGUAUCUAC,1.46
CUUCUAUAUAAAACUUAAUACCAUUAGUUCCCCAUUCUUGACAUUUUAUUUCAGUUUUUAUUAUAUAUUUAUUUGAAAUAUUUAUUAAAUUAUCUGACCUACAGAACUAA,1.55
UGUAGACCCCAUCUCAGUGUCUUCAGAAGGACUGUGAACAGAGGCAGCGUCUGCCAUGAAACCAGUUCACCGCUCCUCUCCAUGAAUUGACCUUUUCAAUUUUUUUAAAG,0.464
AUCAAAUCUAUUCAGGUUUCUUCACUGUUGAGAACACCUAAAUGUUUUUAUUUUUGAGAAGUGGGGACAGAGUCUCACUAUGUCACCCAGGCUGGAGUGCAAUGGCAUGA,0.886
GGAAGGGGCCCUGAAGAUUAAGCUUCCUUAGCGUCACAAUAAGUCCGUAUCUGGUUGCAAUUGAAAACUGAUGCUUCAGUGAGGGUAUCUAAAAAGGUAAACUGGCAUAU,0.467
GAUGACCAGAAUGAAAGCUUGCUCUGCCUCCUGCCAGCCAGAAUUGGUGGCGGGACUUGGGGAUACAGCGUGAAGGUGGGGAAGUUGCACAGCAGAAAACAGAAUUGAAG,1.16
AUAUGCUUAAUAGUGUGCUAAAUAAGUGCUCUUCUGUCUUUUAUUAGAGCUUCUCAGAAACCCUAAUAGGCAAGUAUUAUCUUGAUUUUGCAGAUGUGAAAGCUAAGACC,0.295
UGUGUAAUUUAAUAGUAGCAUUCUGGAGUAGAUUCUUUUUUUGUAUUCUGGCCUUGGAAUACUUUAAUUCCGGACCAAAAGAGGUCAAUUUUGUGAGUAUUGCCUAUUAA,0.607
AAAAUAAAAUCUCUAGUCCAAACACACUGACAGUAUUAUGUUUGCCUGAAUGUGAAACAUUCCUCCUUUUUUCUUCCAUAAAUAAUUUGUUUGCUUCCCAAAGAUGUAUG,1.45
GUUUGAGAGAUGUCUUUCAGUUUUCUUUUCCUGCAUCAUACCUGGAAUGCAUGCAGCCUGCUGUUGGUACCCUGCUCACCUGUGUCUUUCUUACCCAGGAGGCUUCUCUC,1.34
ACAAACAUAAAAAUGGUUUCUCUUCUCAAUCUUCUAAAGUCUGCCUGCCUUUUCCAGGGGUAGGUCUGUUUCUUUGCUGUUCUAUUGUCUUGAGAGCACAGACUAACACU,0.613
ACUAGAGGUUGCUAAUCAGCAUGUUUUAGCCCAAGUCCGCCUUCCUGCUGUGGUUAACCUGUUAUGUUGCUUUUGGAAGGAGACUCUAAGACAGGGAAAGCAAGUUCAUG,17.1

# Set 4
# Target: Sal-like protein 4, full length isoform B (SALL4, Homo sapiens, UniProt Q9UJQ4-2, residues 1-616)
# Technique: universal PBM
# Form: double-stranded DNA, one strand shown
# Sample: in vitro
# Tested at: not given
# Notes: 8-mer, flanks averaged, mean of replicates
# Reading: higher = stronger binding
Strand,E-score
AGAATGTC,0.0729
CACGATAG,0.0257
ACAAGCCT,-0.0266
ATGTGAAC,0.102
CTTAACCC,-0.128
ATCTACTG,0.101
AGGATCCG,-0.233
GGCTCACA,-0.189
CAATACTC,0.143
GATGCTAA,-0.0491
AGGCATTG,-0.0449
CTTGCCAA,0.0306
AGCGATGC,-0.238
GGTAGTAC,-0.0819
AAGGCTGG,-0.215
TATTGGGA,0.21

# Set 5
# Target: CCNE1, cyclin fold, Cln2 fusion (human)
# Technique: yeast growth competition, sequencing
# Sample: yeast
# Notes: strong parent motif
# Relative to: not given
# Reading: higher = stronger binding
# Starting sequence: E2F1 docking peptide (human); PPVKRRLDLETDH; partner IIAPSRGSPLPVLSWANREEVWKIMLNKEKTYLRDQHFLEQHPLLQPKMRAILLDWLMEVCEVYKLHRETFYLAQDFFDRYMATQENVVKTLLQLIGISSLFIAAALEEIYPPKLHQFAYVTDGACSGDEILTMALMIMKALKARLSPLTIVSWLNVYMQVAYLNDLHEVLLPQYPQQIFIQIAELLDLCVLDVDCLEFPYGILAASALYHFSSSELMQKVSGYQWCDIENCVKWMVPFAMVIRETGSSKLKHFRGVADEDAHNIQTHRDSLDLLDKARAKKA
Variant,normalised enrichment score
PPVKRRLDLVTDH [E10V],0.811
PPVKRRLDLETFH [D12F],2.77
PPVKRILDLETDH [R6I],1.52
PPVKRRLDLEDDH [T11D],1.86
PPVKRRLDLETDA [H13A],1.8
PPVKRRLDLHTDH [E10H],2.03
PPVWRRLDLETDH [K4W],0.23
PPVKGRLDLETDH [R5G],0.147
PPVKRRLDLEFDH [T11F],4.25
EPVKRRLDLETDH [P1E],1.36
PPVKRRLDLITDH [E10I],1.14
IPVKRRLDLETDH [P1I],1.01
PPVERRLDLETDH [K4E],0.0559
PPVKRRLDLFTDH [E10F],1.03
PPIKRRLDLETDH [V3I],-0.409
PFVKRRLDLETDH [P2F],2.12
PPVYRRLDLETDH [K4Y],-0.0708
PPVKRLLDLETDH [R6L],0.0959
PPVKRRLDLATDH [E10A],1.75
PPVKRNLDLETDH [R6N],0.0796
PPVKRRLDLEYDH [T11Y],3.49
PPVKRRYDLETDH [L7Y],0.144
PPVKRRLDLETRH [D12R],0.961
PPVKRRQDLETDH [L7Q],0.478

# Set 6
# Target: ABI1, truncated, D143A, DHFR fusion (Arabidopsis thaliana)
# Technique: DHFR PCA, deep sequencing
# Sample: yeast
# Notes: methotrexate growth selection, single substitutions
# Added: (+)-ABA 1.4 µM
# Relative to: wild-type fitted maximum
# Reading: higher = stronger binding
# Starting sequence: PYL1, truncated, DHFR fusion (Arabidopsis thaliana); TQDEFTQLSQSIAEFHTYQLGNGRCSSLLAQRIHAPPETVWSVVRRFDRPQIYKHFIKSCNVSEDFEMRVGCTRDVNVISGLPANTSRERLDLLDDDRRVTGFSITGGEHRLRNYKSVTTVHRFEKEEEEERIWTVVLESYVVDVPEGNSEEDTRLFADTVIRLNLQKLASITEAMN; partner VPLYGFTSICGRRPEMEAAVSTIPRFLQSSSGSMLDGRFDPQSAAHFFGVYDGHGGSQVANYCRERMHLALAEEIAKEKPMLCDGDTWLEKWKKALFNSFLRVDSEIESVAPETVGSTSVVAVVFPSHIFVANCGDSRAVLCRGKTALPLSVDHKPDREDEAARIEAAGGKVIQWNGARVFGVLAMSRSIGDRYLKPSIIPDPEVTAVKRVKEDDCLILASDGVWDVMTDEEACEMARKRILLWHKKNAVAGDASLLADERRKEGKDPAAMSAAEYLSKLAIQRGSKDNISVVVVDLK
Variant,relative binding score [%]
N85P,0.412
E64L,28
S27H,44
S26M,9.42
N149L,13.9
R45C,-0.327
T135E,3.36
A13G,33.3
T160R,-0.667
V78R,16
L166C,5.88
V100I,55.8
T119W,-9.11

# Set 7
# Target: Histone acetyltransferase KAT6A, winged helix 2, GST fusion (KAT6A, Homo sapiens, UniProt Q92794, residues 85-181)
# Technique: protein binding microarray
# Form: double-stranded DNA, one strand shown
# Sample: in vitro
# Tested at: not given
# Notes: 8-mer, flanks averaged, mean of 2 arrays, mostly near background
# Relative to: not given
# Reading: higher = stronger binding
# Target sequence (chain): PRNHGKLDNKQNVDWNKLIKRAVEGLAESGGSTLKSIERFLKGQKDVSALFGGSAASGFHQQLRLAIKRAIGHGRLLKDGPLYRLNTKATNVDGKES
Strand,E-score
AACTAATA,0.08
TAATGGGA,-0.2
ACAGCAGT,0.119
AGGTAATG,-0.082
ATAAGTTA,0.0402
AACGGACC,0.113
GCGGGAAC,0.0521
GAACTCAA,-0.0396
CCCCCAGC,-0.0328
AGCGAACG,-0.119
ATGAAAGA,-0.0164
ACCACAAA,0.0785
ATCGAGAT,-0.0341
AGTGCACG,0.00965
GCAAGTAC,-0.131
GATTCAAC,0.0245
AGGGACAT,-0.0936
CGTCCTGC,0.034
ATGACAGA,-0.0787

# For quick reference, copied from above (set 6):
Variant,relative binding score [%]
E64L,28
S27H,44
S26M,9.42
N149L,13.9
R45C,-0.327
T135E,3.36
A13G,33.3
T160R,-0.667
V78R,16
L166C,5.88
V100I,55.8
